Experimental data of several laboratories.
Each numbered part is a random draw from the data of one study; scales do not carry over between parts. “And” joins repeats or separate records; there may be more than shown.
UniProt P53779, sequence (whole entry, looked up): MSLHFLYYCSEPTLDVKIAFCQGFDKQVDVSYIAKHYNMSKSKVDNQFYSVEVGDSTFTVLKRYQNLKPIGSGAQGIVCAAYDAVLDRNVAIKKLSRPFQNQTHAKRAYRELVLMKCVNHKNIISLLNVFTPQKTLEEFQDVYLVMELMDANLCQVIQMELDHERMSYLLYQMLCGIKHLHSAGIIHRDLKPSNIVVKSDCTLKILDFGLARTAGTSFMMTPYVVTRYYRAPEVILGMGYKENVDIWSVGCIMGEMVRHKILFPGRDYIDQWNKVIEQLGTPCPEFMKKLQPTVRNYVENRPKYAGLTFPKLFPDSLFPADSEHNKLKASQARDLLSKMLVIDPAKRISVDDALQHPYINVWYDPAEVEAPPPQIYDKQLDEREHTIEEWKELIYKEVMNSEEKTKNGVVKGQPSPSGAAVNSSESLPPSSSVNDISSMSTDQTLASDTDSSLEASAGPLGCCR
UniProt P34947, sequence (whole entry, looked up): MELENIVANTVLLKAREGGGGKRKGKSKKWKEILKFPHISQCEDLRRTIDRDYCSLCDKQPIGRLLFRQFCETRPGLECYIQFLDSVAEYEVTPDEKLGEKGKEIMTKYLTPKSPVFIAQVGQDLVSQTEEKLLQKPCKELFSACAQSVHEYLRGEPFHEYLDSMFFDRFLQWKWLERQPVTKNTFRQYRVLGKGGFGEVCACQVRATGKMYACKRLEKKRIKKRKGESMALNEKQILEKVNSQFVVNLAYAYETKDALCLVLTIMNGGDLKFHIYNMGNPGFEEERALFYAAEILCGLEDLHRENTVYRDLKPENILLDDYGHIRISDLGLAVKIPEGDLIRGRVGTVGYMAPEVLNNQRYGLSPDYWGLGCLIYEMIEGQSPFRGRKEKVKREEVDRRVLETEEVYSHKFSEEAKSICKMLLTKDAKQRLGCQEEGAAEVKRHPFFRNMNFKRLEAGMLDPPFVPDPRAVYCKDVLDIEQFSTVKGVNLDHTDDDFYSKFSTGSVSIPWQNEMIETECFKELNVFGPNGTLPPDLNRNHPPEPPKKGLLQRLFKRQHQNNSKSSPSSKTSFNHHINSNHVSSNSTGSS
UniProt P52564, sequence (whole entry, looked up): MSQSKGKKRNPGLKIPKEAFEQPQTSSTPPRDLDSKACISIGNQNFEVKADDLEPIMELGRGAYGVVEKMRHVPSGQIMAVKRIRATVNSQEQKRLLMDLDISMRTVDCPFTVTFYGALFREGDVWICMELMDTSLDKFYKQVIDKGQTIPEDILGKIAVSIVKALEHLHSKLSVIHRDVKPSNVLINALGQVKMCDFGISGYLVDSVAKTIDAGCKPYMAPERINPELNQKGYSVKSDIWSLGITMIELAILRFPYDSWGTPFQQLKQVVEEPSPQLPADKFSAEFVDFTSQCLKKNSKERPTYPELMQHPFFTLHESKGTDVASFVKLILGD
UniProt O43293, sequence (whole entry, looked up): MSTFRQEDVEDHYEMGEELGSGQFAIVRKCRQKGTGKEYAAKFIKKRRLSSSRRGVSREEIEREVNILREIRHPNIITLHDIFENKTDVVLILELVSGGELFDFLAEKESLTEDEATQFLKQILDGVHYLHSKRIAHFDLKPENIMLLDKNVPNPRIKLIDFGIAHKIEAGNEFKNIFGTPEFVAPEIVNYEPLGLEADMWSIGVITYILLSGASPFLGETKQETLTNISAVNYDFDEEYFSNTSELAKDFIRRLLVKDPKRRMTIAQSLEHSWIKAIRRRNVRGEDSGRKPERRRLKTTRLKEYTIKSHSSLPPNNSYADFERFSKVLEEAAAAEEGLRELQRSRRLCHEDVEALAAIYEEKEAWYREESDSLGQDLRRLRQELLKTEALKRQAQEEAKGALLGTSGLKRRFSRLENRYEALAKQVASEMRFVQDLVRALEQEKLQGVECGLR
UniProt Q96PY6, sequence (whole entry, looked up): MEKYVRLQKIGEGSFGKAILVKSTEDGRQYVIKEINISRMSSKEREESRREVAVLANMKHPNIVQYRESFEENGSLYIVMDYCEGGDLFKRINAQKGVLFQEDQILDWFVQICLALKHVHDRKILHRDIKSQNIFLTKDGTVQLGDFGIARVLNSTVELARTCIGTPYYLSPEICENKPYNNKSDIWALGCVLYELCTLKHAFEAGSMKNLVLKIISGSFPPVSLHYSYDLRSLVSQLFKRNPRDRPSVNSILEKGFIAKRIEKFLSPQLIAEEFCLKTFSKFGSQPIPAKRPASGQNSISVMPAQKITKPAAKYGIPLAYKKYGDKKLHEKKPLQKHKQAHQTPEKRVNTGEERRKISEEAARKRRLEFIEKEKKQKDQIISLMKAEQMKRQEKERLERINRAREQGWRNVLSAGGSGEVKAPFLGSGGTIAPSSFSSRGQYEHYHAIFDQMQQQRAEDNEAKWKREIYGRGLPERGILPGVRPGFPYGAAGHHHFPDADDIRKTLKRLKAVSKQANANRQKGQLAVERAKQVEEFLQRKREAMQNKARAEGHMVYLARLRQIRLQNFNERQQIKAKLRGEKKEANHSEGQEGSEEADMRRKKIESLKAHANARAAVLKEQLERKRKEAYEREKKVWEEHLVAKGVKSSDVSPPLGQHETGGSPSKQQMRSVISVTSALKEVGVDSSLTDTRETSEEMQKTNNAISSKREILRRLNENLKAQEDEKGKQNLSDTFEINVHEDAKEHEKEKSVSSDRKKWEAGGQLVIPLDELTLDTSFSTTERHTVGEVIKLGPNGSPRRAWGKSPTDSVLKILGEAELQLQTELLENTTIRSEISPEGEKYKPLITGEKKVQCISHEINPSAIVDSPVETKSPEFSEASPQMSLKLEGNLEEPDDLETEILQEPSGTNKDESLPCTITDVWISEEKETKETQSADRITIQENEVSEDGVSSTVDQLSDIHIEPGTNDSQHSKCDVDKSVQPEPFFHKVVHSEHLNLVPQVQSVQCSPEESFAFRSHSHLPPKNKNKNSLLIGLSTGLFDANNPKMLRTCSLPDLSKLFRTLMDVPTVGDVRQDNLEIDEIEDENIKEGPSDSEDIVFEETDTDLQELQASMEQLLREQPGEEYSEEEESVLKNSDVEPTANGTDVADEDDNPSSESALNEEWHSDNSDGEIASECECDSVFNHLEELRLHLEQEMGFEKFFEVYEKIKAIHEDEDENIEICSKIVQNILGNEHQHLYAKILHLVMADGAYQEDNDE

Block 1
Structure (SMILES): C[C@@H]1CN(c2cc(-c3nn(C)c4ccc(OC5(C)CC5)cc34)ncn2)C[C@H](C)O1
MAP3K14: Mitogen-activated protein kinase kinase kinase 14 (MAP3K14, Homo sapiens, UniProt Q99558)
UniProt Q99558, sequence (whole entry, looked up): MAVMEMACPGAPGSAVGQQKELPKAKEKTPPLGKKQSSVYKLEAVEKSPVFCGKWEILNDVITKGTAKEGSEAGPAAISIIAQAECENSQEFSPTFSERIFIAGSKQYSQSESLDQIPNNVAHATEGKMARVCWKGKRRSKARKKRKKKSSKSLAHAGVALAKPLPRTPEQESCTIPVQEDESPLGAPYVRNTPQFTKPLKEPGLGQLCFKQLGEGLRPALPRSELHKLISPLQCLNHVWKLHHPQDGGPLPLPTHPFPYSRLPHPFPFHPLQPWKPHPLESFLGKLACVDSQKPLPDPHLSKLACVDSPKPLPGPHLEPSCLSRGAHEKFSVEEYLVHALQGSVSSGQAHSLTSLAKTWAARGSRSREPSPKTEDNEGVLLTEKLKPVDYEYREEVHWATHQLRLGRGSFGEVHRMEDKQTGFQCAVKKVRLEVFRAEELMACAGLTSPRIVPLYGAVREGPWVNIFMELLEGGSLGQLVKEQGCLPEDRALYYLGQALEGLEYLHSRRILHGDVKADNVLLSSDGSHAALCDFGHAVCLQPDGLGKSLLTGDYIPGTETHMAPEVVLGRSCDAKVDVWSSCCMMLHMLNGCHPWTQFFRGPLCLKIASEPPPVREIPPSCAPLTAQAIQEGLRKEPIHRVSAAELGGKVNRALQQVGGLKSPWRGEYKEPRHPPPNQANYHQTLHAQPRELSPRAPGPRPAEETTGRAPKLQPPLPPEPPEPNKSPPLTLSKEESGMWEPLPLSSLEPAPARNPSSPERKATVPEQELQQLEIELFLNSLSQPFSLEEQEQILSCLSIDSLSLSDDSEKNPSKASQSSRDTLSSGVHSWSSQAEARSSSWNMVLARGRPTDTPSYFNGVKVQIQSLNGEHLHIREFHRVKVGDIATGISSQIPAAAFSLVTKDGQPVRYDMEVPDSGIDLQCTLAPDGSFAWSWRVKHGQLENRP
TTK: Dual specificity protein kinase TTK (TTK, Homo sapiens, UniProt P33981)
UniProt P33981, sequence (whole entry, looked up): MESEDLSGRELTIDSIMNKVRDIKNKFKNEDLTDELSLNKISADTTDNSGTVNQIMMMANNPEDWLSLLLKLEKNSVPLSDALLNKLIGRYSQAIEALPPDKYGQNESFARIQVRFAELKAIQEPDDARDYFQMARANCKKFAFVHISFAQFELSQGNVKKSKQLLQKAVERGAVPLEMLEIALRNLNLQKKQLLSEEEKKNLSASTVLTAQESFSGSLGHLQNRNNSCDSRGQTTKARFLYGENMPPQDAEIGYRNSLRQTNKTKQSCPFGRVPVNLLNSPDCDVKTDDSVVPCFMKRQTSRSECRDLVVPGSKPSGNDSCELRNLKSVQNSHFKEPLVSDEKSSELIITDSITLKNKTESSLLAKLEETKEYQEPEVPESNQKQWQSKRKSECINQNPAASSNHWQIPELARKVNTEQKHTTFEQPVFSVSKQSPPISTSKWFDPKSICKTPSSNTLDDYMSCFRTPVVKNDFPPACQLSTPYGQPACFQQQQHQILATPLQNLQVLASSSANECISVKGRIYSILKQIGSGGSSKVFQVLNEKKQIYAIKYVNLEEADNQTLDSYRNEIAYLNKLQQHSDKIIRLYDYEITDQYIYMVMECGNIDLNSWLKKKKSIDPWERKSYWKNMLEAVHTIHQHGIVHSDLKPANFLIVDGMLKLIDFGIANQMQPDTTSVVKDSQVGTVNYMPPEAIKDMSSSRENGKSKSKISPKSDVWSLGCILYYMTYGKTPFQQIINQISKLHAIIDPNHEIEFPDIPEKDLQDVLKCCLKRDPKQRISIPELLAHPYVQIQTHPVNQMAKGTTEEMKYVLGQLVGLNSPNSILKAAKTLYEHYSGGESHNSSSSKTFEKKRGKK
| target | observed | technique | sample | EC50 |
| --- | --- | --- | --- | --- |
| CLK4 (Homo sapiens, UniProt Q9HAZ1) | target engagement in cells | BRET |  | 6.2 µM |
| MAP3K14 | target engagement | NanoBRET | live cells | > 50 µM |
| LRRK2 (Homo sapiens, UniProt Q5S007) | target engagement | NanoBRET | live cells | > 50 µM |
| MAP3K5 (Homo sapiens, UniProt Q99683) | target engagement in cells | BRET |  | 4.1 µM |
| CLK2 (Homo sapiens, UniProt P49760) | target engagement in cells | BRET |  | 11 µM |
| TTK | target engagement in cells | BRET |  | > 50 µM |
| TTK | target engagement | NanoBRET | live cells | > 50 µM |
| MAP3K14 | target engagement in cells | BRET |  | > 50 µM |

Block 2
Structure (SMILES): CC(C)S(=O)(=O)c1ccc2nccc(Nc3ccc4sc(C5CCCC5)nc4c3)c2c1.Cl
Tested at: 1 µM
| target | observed | mode | remaining activity |
| --- | --- | --- | --- |
| CSNK1E (Homo sapiens, UniProt P49674) | kinase activity | inhibitor | 97% |
| TSSK2 (Homo sapiens, UniProt Q96PF2) | kinase activity | inhibitor | 90% |
| PRKD3 (Homo sapiens, UniProt O94806) | kinase activity | inhibitor | 96% |
| HIPK1 (Homo sapiens, UniProt Q86Z02) | kinase activity | inhibitor | 105% |
| PKG1β(h) (human) |  |  | 126% and 113% |
| PRKD2 (Homo sapiens, UniProt Q9BZL6) | kinase activity | inhibitor | 94% |
| PDK2 (Homo sapiens, UniProt Q15119) | kinase activity | inhibitor | 99% |
| NEK3 (Homo sapiens, UniProt P51956) | kinase activity | inhibitor | 105% |
| MAP3K21 (Homo sapiens, UniProt Q5TCX8) | kinase activity | inhibitor | 86% |
| Tribbles homolog 2 (TRIB2, Homo sapiens, UniProt Q92519) | kinase activity | inhibitor | 93% |
| NEK1 (Homo sapiens, UniProt Q96PY6) | kinase activity | inhibitor | 86% |
| BLK (Homo sapiens, UniProt P51451) | kinase activity | inhibitor | 81% |
| LIM domain kinase 2 (LIMK2, Homo sapiens, UniProt P53671) | kinase activity | inhibitor | 83% |
| MAPKAPK3 (Homo sapiens, UniProt Q16644) | kinase activity | inhibitor | 87% |
| GSK3B (Homo sapiens, UniProt P49841) | kinase activity | inhibitor | 111% |
| MAP2K6 (Homo sapiens, UniProt P52564) | kinase activity | inhibitor | 88% |
| DAPK3 (Homo sapiens, UniProt O43293) | kinase activity | inhibitor | 99% |
| ITK (Homo sapiens, UniProt Q08881) | kinase activity | inhibitor | 91% |

Block 3
Cell line: A-375
Tested at: 100 µM
Time: 36 h
| SMILES | viability [%] |
| --- | --- |
| CC(C(=O)O)c1ccc2c(c1)[nH]c1ccc(Cl)cc12 (stereo not drawn) | 88.5 |
| C[C@H]1COc2c(C3(N)CC3)c(F)cc3c(=O)c(C(=O)O)cn1c23 | 113 |
| CC(=O)[C@H]1CC[C@H]2[C@@H]3C[C@H](C)C4=CC(=O)CC[C@]4(C)[C@H]3[C@@H](O)C[C@]12C | 21.3 |
| CCNC(=O)CCC/C=C\C[C@@H]1[C@@H](/C=C/[C@@H](O)CCc2ccccc2)[C@H](O)C[C@@H]1O | 98.1 |
| CNCC[C@@H](Oc1ccccc1C)c1ccccc1 | 16.1 |
| O=C1c2c(O)ccc(O)c2C(=O)c2c(NCCNCCO)ccc(NCCNCCO)c21 | -7.54 |
| Cc1c(O)cccc1C(=O)N[C@@H](CSc1ccccc1)[C@H](O)CN1C[C@H]2CCCC[C@H]2C[C@H]1C(=O)NC(C)(C)C | 9.63 |
| C[C@]12CC[C@@H]3c4ccc(O)cc4CC[C@H]3[C@@H]1C[C@@H](O)[C@@H]2O | 91.4 |
| NCCCC[C@H](N[C@@H](CCc1ccccc1)C(=O)O)C(=O)N1CCC[C@H]1C(=O)O | 94 |
| CNC[C@@H](O)c1ccc(O)c(O)c1 | 66.6 |
| O=C(O)CCC(=O)Nc1ccc(S(=O)(=O)Nc2nccs2)cc1 | 117 |
| CC(C)N(CCCCOCC(=O)NS(C)(=O)=O)c1cnc(-c2ccccc2)c(-c2ccccc2)n1 | 60.1 |
| CC1(C)S[C@@H]2[C@H](NC(=O)[C@H](C(=O)O)c3ccsc3)C(=O)N2[C@H]1C(=O)O | 101 |
| Cc1ccc2c(Cl)cc(Cl)c(O)c2n1 | 34.4 |
| CC(=O)Nc1ccc(O)cc1 | 123 |
| CC(=O)OC/C=C(C)/C=C/C=C(C)/C=C/C1=C(C)CCCC1(C)C | 16.6 |
| CN(C)CCOC(=O)COc1ccc(Cl)cc1 | 86.4 |

Block 4
SMILES: Fc1ccc(-c2nc3n(c2-c2ccncc2)CCS3)cc1
Observed: enzyme activity
Mode: inhibitor
Tested at: 0.5 µM
Reference: control
| target | remaining activity [%] |
| --- | --- |
| HIPK3 (Homo sapiens, UniProt Q9H422) | 109 |
| EGFR (Homo sapiens, UniProt P00533) | 90.7 |
| RET (Homo sapiens, UniProt P07949) | 99.5 |
| PKN2 (Homo sapiens, UniProt Q16513) | 96.3 |
| DYRK4 (Homo sapiens, UniProt Q9NR20) | 106 |
| MAP3K2 (Homo sapiens, UniProt Q9Y2U5) | 99.8 |
| Cyclin-dependent kinase 2, with cyclin A (CDK2, Homo sapiens, UniProt P24941) | 101 |
| MAPK10 (Homo sapiens, UniProt P53779) | 116 |
| Aurora kinase A (AURKA, Homo sapiens, UniProt O14965) | 92.1 |
| DMPK (Homo sapiens, UniProt Q09013) | 102 |
| SLK (Homo sapiens, UniProt Q9H2G2) | 110 |
| CAMK1G (Homo sapiens, UniProt Q96NX5) | 95.2 |
| CSNK2A2 (Homo sapiens, UniProt P19784) | 105 |
| ROCK2 (Homo sapiens, UniProt O75116) | 99.1 |
| GRK5 (Homo sapiens, UniProt P34947) | 103 |
| PRKD1 (Homo sapiens, UniProt Q15139) | 90.2 |
| MAP3K8 (Homo sapiens, UniProt P41279) | 88.1 |
| NEK9 (Homo sapiens, UniProt Q8TD19) | 102 |
| CDK7 (Homo sapiens, UniProt P50613) | 95 |
| CAMK1D (Homo sapiens, UniProt Q8IU85) | 100 |
| NTRK3 (Homo sapiens, UniProt Q16288) | 105 |
| BRSK1 (Homo sapiens, UniProt Q8TDC3) | 94 |
| PTK2B (Homo sapiens, UniProt Q14289) | 106 |
